Experimental data gathered from unrelated publications.
Lines come from different studies, so protocols differ. ± gives the spread as reported.
Organism: Influenza A virus

Structure (SMILES)	assay	system	conditions	how to read	quantity	result
CC(=O)N[C@H]1[C@H]([C@H](O)[C@H](O)CO)OC(C(=O)O)=C(C/C=C/c2ccc(C)cc2)[C@@H]1O	viral replication	A/Paris/0497/2007 (H1N1)	72 h		EC50	80 µM
COc1ccc(CCO)cc1O	viral replication, inhibitor	H1N1 WSN	10 µM		inhibition	6.77%
O=C(Nc1ccccc1SSc1ccccc1NC(=O)c1ccccc1)c1ccccc1		A/NWS/33 (H1N1), mouse, serum	oral, 1 mg/mouse/day, day 14	reference: untreated infected control	neutralizing antibody titre	1.7 fold
COc1ccc(C(=O)OC2CC(C(=O)OC3CCC4(C)C(CCC5(C)C4CC=C4C6CC(C)(C)CCC6(C(=O)NCc6ccccc6)CCC45C)C3(C)C)N(C(=O)c3ccc(F)c(F)c3)C2)cc1OC (stereo not drawn)	viral replication	MDCK, A/WSN/1933 (H1N1)	48 h		EC50	5.17 ± 1.76 µM
C=C(C)[C@H](O)COc1ccc(CCO)cc1	viral replication, inhibitor	H1N1 WSN	10 µM		inhibition	10%
O=C(c1ccc(Cl)cc1Cl)N1CCO[C@@H](c2ccccc2)C1	viral replication		72 h		EC50	100 µM
CC1(C)CCC2(C(=O)NCc3ccccc3)CCC3(C)C(=CCC4C5(C)CCC(OC(=O)C6CC(OC(=O)C7CC(O)C(O)C(O)C7)CN6C(=O)c6ccc(O)c(O)c6)C(C)(C)C5CCC43C)C2C1 (stereo not drawn)		MDCK, A/WSN/1933 (H1N1)		reference: CC50 over EC50	selectivity index	42.3
OCCc1ccc(O)cc1	viral replication, inhibitor	H1N1 WSN	10 µM		inhibition	0%
CC1(C)CCC2(C(=O)NCc3ccccc3)CCC3(C)C(=CCC4C5(C)CCC(OC(=O)C6CC(OC(=O)c7ccccc7)CN6C(=O)c6ccccc6)C(C)(C)C5CCC43C)C2C1 (stereo not drawn)	viral replication	MDCK, A/WSN/1933 (H1N1)	48 h		EC50	> 20 µM
C[C@H](O)CC(=O)OCCc1ccc(O)cc1	viral replication, inhibitor	H1N1 WSN	10 µM		inhibition	58.1%
COc1ccc(C(=O)OC2CC(C(=O)OC3CCC4(C)C(CCC5(C)C4CC=C4C6CC(C)(C)CCC6(C(=O)NCc6ccccc6)CCC45C)C3(C)C)N(C(=O)c3ccc(OC)c(OC)c3)C2)cc1OC (stereo not drawn)	viral replication	MDCK, A/WSN/1933 (H1N1)	48 h		EC50	4.02 ± 1.42 µM
C=CCC1=C(C(=O)O)O[C@@H]([C@H](O)[C@H](O)CO)[C@H](NC(C)=O)[C@H]1O	viral replication	A/Paris/0497/2007 (H1N1)	72 h		EC50	1800 µM
